Results pooled from the literature.
Every numbered part comes from another study and shows a few of its results, in no order. Positions count from the first letter of the parent shown.

Series 1
Target: Max dimerization protein 1, bHLH-zipper, MAX partner unstated (MXD1, Homo sapiens, UniProt Q05195, residues 56-136)
Technique: protein-binding microarray
Form: double-stranded DNA, one strand shown
Matrix: in vitro
Tested at: not given
Setting: k-mer, scored over probes, only values ≥0.25
Reading: higher = stronger binding
Construct (chain): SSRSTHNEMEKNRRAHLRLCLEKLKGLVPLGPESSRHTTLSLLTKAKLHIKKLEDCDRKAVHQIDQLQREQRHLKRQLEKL
Sequence | E-score
AGCATGTC | 0.411
CGTGTTAG | 0.328
CATGGTCC | 0.351
CAGCGTGA | 0.255
GCATGTAA | 0.301
CATGCGTC | 0.412
AGCACGTG | 0.491
CGTGGCGC | 0.263
CATGGTGA | 0.272
GCGCACGA | 0.348
AGCATGCT | 0.401
ACGTGCTG | 0.317
CACGCCGA | 0.338
AAAATGTG | 0.313
CCGCACGC | 0.371
CCCCACGC | 0.362
GCACGCGA | 0.313
ACGCATAA | 0.277
CGGGGTGA | 0.256
ACTCTCCC | 0.257

Series 2
Target: Prothrombin, mature alpha-thrombin (F2, Homo sapiens, UniProt P00734)
Technique: aptamer microarray, sandwich
Form: DNA with 2'F-ANA
Matrix: in vitro
Tested at: 200 nM
Setting: whole 15-mer aptamer, many near background
Added: Cy3 exosite-II aptamer, 400 nM
Reading: higher = stronger binding
Sequence: GGTTGGTGTGGTTGG
Modification | mean fluorescence intensity
2'F-ANA at 4 5 8 9 10 11 13 15 | 111 a.u.
2'F-ANA at 2 4 5 6 7 9 10 11 12 14 15 | 48.5 a.u.
2'F-ANA at 1 2 4 7 9 11 12 13 | 189 a.u.
2'F-ANA at 2 3 5 6 7 8 9 11 13 | 75.4 a.u.
2'F-ANA at 2 3 4 5 10 11 12 13 14 | 75.9 a.u.
2'F-ANA at 1 3 4 6 7 8 9 10 14 15 | 52.5 a.u.
2'F-ANA at 1 3 6 9 13 15 | 203 a.u.
2'F-ANA at 1 3 5 8 9 13 | 52.6 a.u.
2'F-ANA at 3 4 5 6 8 10 14 | 44.1 a.u.
2'F-ANA at 1 3 4 9 13 14 15 | 103 a.u.
2'F-ANA at 1 5 6 7 11 13 14 15 | 46.3 a.u.
2'F-ANA at 4 7 8 10 11 13 15 | 70.7 a.u.
2'F-ANA at 2 5 6 8 9 15 | 84.3 a.u.
2'F-ANA at 2 7 10 11 12 13 14 | 87.3 a.u.
2'F-ANA at 1 7 8 10 11 15 | 55 a.u.
2'F-ANA at 1 3 4 6 10 | 109 a.u.
2'F-ANA at 1 3 5 7 10 11 13 | 44.3 a.u.
2'F-ANA at 3 5 6 7 8 11 13 15 | 89.9 a.u.
2'F-ANA at 3 4 5 6 8 9 11 12 14 | 97.3 a.u.
2'F-ANA at 1 2 3 4 5 7 9 10 12 15 | 70.6 a.u.

Series 3
Target: Sal-like protein 4, full length isoform A (SALL4, Homo sapiens, UniProt Q9UJQ4, residues 1-1053)
Sequence of UniProt Q9UJQ4 (whole entry, looked up): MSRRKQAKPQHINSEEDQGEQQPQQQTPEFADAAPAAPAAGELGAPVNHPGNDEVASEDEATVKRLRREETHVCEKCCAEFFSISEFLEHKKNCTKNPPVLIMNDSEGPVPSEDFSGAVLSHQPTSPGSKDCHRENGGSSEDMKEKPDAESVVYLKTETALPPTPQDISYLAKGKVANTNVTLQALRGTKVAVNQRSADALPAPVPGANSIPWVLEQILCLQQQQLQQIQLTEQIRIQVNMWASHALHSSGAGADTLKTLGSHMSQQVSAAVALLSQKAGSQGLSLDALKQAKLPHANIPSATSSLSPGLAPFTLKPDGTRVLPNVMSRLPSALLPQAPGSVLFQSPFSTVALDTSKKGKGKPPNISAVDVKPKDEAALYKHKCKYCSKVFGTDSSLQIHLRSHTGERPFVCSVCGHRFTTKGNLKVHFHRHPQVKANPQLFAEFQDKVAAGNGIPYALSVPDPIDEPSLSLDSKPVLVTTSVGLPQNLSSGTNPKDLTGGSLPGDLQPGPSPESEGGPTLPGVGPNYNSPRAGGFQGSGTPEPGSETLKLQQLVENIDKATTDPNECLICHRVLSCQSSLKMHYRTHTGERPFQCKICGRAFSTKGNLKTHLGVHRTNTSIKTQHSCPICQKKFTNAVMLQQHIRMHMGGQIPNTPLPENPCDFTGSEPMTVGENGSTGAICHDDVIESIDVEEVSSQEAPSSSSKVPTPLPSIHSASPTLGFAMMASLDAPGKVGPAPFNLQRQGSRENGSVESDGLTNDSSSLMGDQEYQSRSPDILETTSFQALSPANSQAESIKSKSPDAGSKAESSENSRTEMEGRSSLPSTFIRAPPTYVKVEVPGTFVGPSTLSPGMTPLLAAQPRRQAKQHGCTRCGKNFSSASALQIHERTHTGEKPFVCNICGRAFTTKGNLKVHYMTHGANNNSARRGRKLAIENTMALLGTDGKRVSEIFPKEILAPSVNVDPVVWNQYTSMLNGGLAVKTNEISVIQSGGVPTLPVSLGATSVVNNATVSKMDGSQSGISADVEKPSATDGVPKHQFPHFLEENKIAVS
Technique: universal PBM
Form: double-stranded DNA, one strand shown
Matrix: in vitro
Tested at: 600 nM
Setting: 8-mer, flanks averaged, mean of replicates
Reading: higher = stronger binding
Sequence | E-score
GACCGTTA | 0.119
ACACCTAG | -0.0639
CCTAGACC | -0.146
ATGATTCG | 0.0222
AGAGCGCT | -0.149
TAAAGTGA | 0.283
AGGAAGGG | -0.093
TAGGTCCA | 0.0808
GCGACTAA | 0.0225
ATACAAAC | 0.252
CGCTGACG | -0.311
CTTCCGAC | -0.0973
ACGAGGCC | -0.274
ACCAAACC | -0.0716
ATCCCCAC | -0.136
CCATGATC | -0.0489
CGAGGAGA | -0.196
GGACGACC | -0.402
CCAGTGAC | -0.253
GTACTGAC | -0.0709
AATTAACA | 0.306
CTGGGCAC | -0.289
AATAAGAT | 0.26
GACTGTGC | -0.0991
AGACACAT | 0.11

Series 4
Target: CCND3, cyclin fold, Cln2 fusion (human)
Technique: yeast growth competition, sequencing
Matrix: yeast
Setting: weak parent motif
Baseline: not given
Reading: higher = stronger binding
Parent: SAMHD1 docking peptide (human); ASKSRVQLFKDDP
Change | normalised enrichment score
ASKSRVQLFWDDP [K10W] | 0.0341
ASKSRVQLFSDDP [K10S] | 0.186
ASKSRVYLFKDDP [Q7Y] | 0.335
ASKLRVQLFKDDP [S4L] | 0.06
ASKSRVQLKKDDP [F9K] | -0.06
ASKSRVQLFGDDP [K10G] | 0.101
ASKSRVQLFKDIP [D12I] | 0.281
ASKSRVQLFKKDP [D11K] | 0.0338
ASKSRRQLFKDDP [V6R] | 0.199
ASKSRVQLAKDDP [F9A] | 0.0566
ASKRRVQLFKDDP [S4R] | 0.294
ASKPRVQLFKDDP [S4P] | -0.242
ASKSRVQLFKDPP [D12P] | 0.117
ASKSTVQLFKDDP [R5T] | -0.0261
ASKSRVQLWKDDP [F9W] | 0.0795
ASKSRVQGFKDDP [L8G] | 0.295
ASKYRVQLFKDDP [S4Y] | 0.164
ASQSRVQLFKDDP [K3Q] | -0.128
ASKSRPQLFKDDP [V6P] | -0.251
ASKSREQLFKDDP [V6E] | -0.0294
ASKSRVQLFKDHP [D12H] | 0.0853
ASYSRVQLFKDDP [K3Y] | -0.0538
ASKSRVTLFKDDP [Q7T] | 0.193
ASKSRVQLFKDMP [D12M] | 0.048
ASKHRVQLFKDDP [S4H] | 0.0981

Series 5
Target: CREB5, bZIP domain (human)
Technique: DHFR protein complementation
Matrix: yeast
Setting: single substitutions, most at no-binding floor
Baseline: wild-type JUN-FOS pair
Reading: higher = stronger binding
Parent: JUN, bZIP domain (human); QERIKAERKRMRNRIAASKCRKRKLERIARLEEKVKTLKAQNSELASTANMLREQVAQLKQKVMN; partner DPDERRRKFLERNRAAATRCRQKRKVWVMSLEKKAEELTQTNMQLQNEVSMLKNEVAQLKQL
Change | binding fitness
R30K | -0.344 natural log
E33T | -0.532 natural log
M51S | -0.262 natural log
E54I | -0.473 natural log
I28N | -0.726 natural log
V56L | -0.375 natural log
K36I | -0.482 natural log
L59S | -1.46 natural log
Q55E | -0.25 natural log
N42K | -0.758 natural log
K39T | -0.146 natural log
A46H | -0.448 natural log
E44W | -0.854 natural log
K34M | -0.435 natural log
A40T | -0.232 natural log

Series 6
Target: RING finger protein unkempt homolog, zinc fingers 1-6, GST-SBP tag (UNK, Homo sapiens, UniProt Q9C0B0, residues 30-357)
Sequence of UniProt Q9C0B0 (30-357, looked up): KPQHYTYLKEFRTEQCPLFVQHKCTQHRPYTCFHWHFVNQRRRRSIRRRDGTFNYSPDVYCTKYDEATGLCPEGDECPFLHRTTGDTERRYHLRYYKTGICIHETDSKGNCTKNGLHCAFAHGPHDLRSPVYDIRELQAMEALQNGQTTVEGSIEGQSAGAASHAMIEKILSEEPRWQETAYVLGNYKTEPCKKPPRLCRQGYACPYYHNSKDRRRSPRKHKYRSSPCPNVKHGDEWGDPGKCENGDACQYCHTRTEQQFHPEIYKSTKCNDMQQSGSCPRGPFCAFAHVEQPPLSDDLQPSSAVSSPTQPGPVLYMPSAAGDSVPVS
Technique: RNA Bind-n-Seq
Form: RNA
Matrix: in vitro
Tested at: not given
Setting: RNA with constant flanks, human-mouse chimeric sites, ends assumed
Baseline: input RNA pool
Reading: higher = stronger binding
Constant ends, left off below: GGGAGUUCUACAGUCCGACGAUC … CAACAGAGGAUUGAGCAUCA
Sequence | bound/input enrichment
UCUGAGGUACCACUGAAGAGACCUUAAAAGAAUCAUUUGAGGGCUCUGUUCGUGCAAGAAUAGUCACUGAUCGGGAAACUGGUUCUUCCAAAGGGUUUGGUUUUGUAGACUUUAAUAGUG | 0.738 ratio
AGUUCCAAACCACCAUCCAGAAAUGAAAUGAGAUUACCCAGACGAGCCAAAACAGCUGCGCUACAGAAAAGUAAACUUAACCUUGCAGAGUUCCUUAAUGAAGAUACAAGUUAAGAGAGC | 0.227 ratio
GGUGGGGUGGUCAUUGCGCCAAUUGAGGCUGAUUUUCAUGAGUCGCCUUCAAAACUCUCGUGUAGGGUUGACAAUGUAAGGGGUGGGGGGAUCCAGCUUAUUCUUUUAUUUUCAAGUCCA | 0.736 ratio
AAAGUGAUGACUAUGUUUGUCCAACGACAGGUAUUUUCUGAGAACAAAGAUGAGAUUGCGUUAGUCCUCUAUGGCACAGAUGGCACUGAUAAUGCCCUUUCUGGUGGGGACCAGUAUCAG | 0.127 ratio
AUAUUUCAUAUUGCAAAGAUGUUUACAAGUAUUUUAAUUUAAGUUCAGUGAACUUUUUUGUAGCUGGGUUAAAUCUUUUUAUUUUUAUAUGGCCUUAUGGCAAAGAAACACUGUAUUUUU | 1.19 ratio
GAAAGAGAACUAAAGCAACUAAUAGAGAAGAGGAUUGGCAAAGAGAAAUUUCAUAGAAAACUAGGAUUUAUUAGCAAACAUGAGUUAUAUUCCAGAGCGUCUCAGAAACCCCAGCCAAAC | 12.4 ratio
AAAGCCCAAGUAUUUUGAAAAAACUCGAACAGAUUUGACAAGGGUAGCCAGCUUGGAGUCUAGCAACUUUGCCAAUGGUUUACCAAUCUGGGGGCUUGUUUUUCUUUUCUUCUUUCAAAU | 0.346 ratio

Single results of other studies
Substance | target | test | test system | setting | scale | measurement | value
PhoQ, residues 284 288 289 292 302 303 SNSSNI | PhoP, residues 12 14 15 18 19 AQCLL (Escherichia coli, UniProt P23836) | Sort-seq, refers to: YFP reporter | E. coli | PhoQ-PhoP variant library, added: 10 µM Mg2+ | baseline: high Mg2+ state, higher = stronger signaling | fold induction | 3.51

Some of these lines once more (series 4):
Change | normalised enrichment score
ASQSRVQLFKDDP [K3Q] | -0.128
ASKSRPQLFKDDP [V6P] | -0.251
ASKSREQLFKDDP [V6E] | -0.0294
ASKSRVQLFKDHP [D12H] | 0.0853
ASYSRVQLFKDDP [K3Y] | -0.0538
ASKSRVTLFKDDP [Q7T] | 0.193
ASKSRVQLFKDMP [D12M] | 0.048
